# Experimental data from different studies.
# Parts stem from different laboratories: compare values within a part only.

# Block 1
# Target: RING finger protein unkempt homolog, zinc fingers 1-6, GST-SBP tag (UNK, Homo sapiens, UniProt Q9C0B0, residues 30-357)
# Technique: RNA Bind-n-Seq
# Molecule type: RNA
# Sample: in vitro
# Concentration: not given
# Notes: RNA with constant flanks, human-mouse chimeric sites, ends assumed
# Reference: input RNA pool
# Reading: higher = stronger binding
# Target sequence (chain): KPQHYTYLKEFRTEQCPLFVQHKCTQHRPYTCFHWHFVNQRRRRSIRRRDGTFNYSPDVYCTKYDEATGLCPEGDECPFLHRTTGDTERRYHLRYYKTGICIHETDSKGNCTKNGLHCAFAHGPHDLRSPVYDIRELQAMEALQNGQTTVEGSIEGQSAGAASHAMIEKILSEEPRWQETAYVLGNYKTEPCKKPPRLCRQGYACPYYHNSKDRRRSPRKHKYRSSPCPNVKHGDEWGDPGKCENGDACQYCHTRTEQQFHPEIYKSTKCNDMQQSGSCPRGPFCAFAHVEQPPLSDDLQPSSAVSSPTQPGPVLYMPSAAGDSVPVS
Sequence,bound/input enrichment [ratio]
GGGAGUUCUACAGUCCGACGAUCUGGCGCCUGCGCUCCCCACUCGUGUUUUUAAGUGUAUAAGAUGUAUAUACAUGUAUUUACAAUUGAGCUUUUGUUACAUAAUGCUGAAAUGCUACUGGAGAUUAUGAAAAAAUGUUAAAUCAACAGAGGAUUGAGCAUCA,0.211
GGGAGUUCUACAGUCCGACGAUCCACAGAGCAGCACCUACCCCCUCCUCCUUUCCACACCUGCAAACCCUUUUACUUGGGCUGCAUAGUUAGUGUAAUUACAUCUCAGCUUUGAGGGCUCCUGUGGCAAAUUCCCGGAUUAAACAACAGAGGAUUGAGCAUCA,5.24
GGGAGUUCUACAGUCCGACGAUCAUGGAACAUUUCGAUGCGUCACUCAGUACCUAUUUCAAGGCCUUCCUGGGCCCCCGAGAUACAAGAGUAAAAGGAUGGUUCCUCCUGGACAAUUACAUACCCACAUUUGUCUGUUCUGUUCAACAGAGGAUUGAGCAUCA,0.0763
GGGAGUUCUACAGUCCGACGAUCCAGCCUCAGAGCCCAGACUUCCUGGAUAUCACCAACCCUAAAGCGGUAUUAGAAAAUGCACUUAGGAACUUCGCCUGUCUGACGACUGGAGAUGUGAUUGCUAUCAACUACAAUGAGAAGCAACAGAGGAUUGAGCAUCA,0.429
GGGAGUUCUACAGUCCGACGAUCCAGUCCCGCGACAGCGUUGCAGGACGAUGUGAACAAAAACUCAAAGCGGACCCUCUAUUGUAGUUCUUGAUUCUCGAAAUGUGCUAUUGUUUUUAAACUUUUUUUUUUUUUUUUUAAAGACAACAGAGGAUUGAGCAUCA,0.723
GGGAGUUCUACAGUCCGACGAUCCGGAGCCCUCCUCUCCCCCAGGCCCGAGAUGUGACCCACCAGUGCCUUUUGUCUUCCUGUCAGCUCUGUCAAUCACGCCUGUCCUCUCACGCCCACACCAAGUGCCCAAAGUGGGGAGGGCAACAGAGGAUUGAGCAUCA,0.7
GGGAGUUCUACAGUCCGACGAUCUACUACUAUGAUGGUGAUAUUGGAAAUUAUUAUUAUGGCCAGGGUCAUCCCAUGAAGCCUCAUAGAAUCCGCAUGACUCAUAACUUGCUGCUAAAUUAUGGUUUAUACCGAAAAAUGGAACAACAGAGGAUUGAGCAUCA,0.173
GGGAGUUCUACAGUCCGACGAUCAAAUCGUGUGUGUCAAAUAUUGAAAGUACUUUAUCUGCACUCCAGUAUGUAAGCAGUAUAGUAGUUUCUUUAGAGAAUAGGUCAGCCAUUGUAAAGUACAAUGCAAGCUUAGUCACUCCACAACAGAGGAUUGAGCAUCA,2.77
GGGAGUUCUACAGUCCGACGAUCACCAUUUUCGCGGUUCAAGGUUUUGUGGUAGUUCACUUACGGUAUUAAAUUAUUAUUCUGCUUAGCUUAAAGUAAGGAUAAUUGCAUUUAAAGAGGUUACUGAAUGUUACUCUGAAACUUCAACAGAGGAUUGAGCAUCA,0.188
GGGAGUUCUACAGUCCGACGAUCCUAGCAGUCCAGCAGCUAGAAGGAGCCUUGAGACAAACACUCCACACACAGGGAAGGCAAUAGCUUUGUACAUUGGUUUACAUUUUUUCCCCCUGUGGAUUUUUCUAGAGGUCAUAGUGCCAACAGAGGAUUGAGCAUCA,1.12
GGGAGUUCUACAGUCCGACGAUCGUAUUUGUGCGCUCCCCACUCGUGUUUUUAAGUGUAUUUUUAUAAGAUACAUGUAUUUACAAUUGAGCUUUUGUUACAUAAUGCUGAAAUGCUACUGCAAUAUUAUGAAAAUGUUUCAAUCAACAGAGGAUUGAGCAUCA,0.155

# Block 2
# Target: RNA binding protein fox-1 homolog 2, RRM domain, GST-SBP tag (RBFOX2, Homo sapiens, UniProt O43251-10, residues 100-194)
# Technique: RNA Bind-n-Seq
# Molecule type: RNA
# Sample: in vitro
# Concentration: 365 nM
# Notes: natural RNA segment, single round, ends assumed
# Reference: no-protein control
# Reading: higher = stronger binding
# Target sequence (chain): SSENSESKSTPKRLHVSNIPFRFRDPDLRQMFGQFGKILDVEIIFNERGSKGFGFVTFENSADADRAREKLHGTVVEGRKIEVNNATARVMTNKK
Sequence,RBNS enrichment (R)
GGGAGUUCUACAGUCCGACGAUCCUGAGAGCAGCAACAGCCCUCUCUUCCUGCCCCCACCUAGGAGUGCCAAUACACUUAAGCUUUGUCUGCAAAACCCUGAUUUUUUUUUUAAAUCUAAAAUGAAUGACUUUUGGAAUUCUCGGGUGCCAA,0.564
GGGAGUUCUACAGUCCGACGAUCGCUUUAAAAAAACCUCCACAGCCGAAUCUUCUCCUCCGAGCCACUCCACGUCACGUCCAGCUGGGCCUGGCCAGUCUGUGGUUAUCCAUGUGGGAUGAGAUAACACCACAUGGAAUUCUCGGGUGCCAA,0.254
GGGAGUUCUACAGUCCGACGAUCGUAUGGCUAAGUGCGAACACAUUGACAGGUCCAGCAAGAAGGAGCCUCAAACUGCCAUUCACAGUGGUACUGUGAUCCAGACCCCUGAGUGCCACAGGAAGGGUAGGCCCUGGAAUUCUCGGGUGCCAA,0.422
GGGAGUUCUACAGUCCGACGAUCGUCAGUGUGCAGAGCUCCUUUCUGGCCACACCUCUGUGAACCCCUAUAUUUUCUGGGACUGGAAGGAAUGAAUGCCCAUGUCCUGUCUACUUCUGUGUCUGUGCUAUGUGUGGAAUUCUCGGGUGCCAA,4.81
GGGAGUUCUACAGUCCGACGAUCCGACAGGGCGUGCCUCUCCCACUGCAGCCCCUGUGGUGGUGGCUGCCUAAUUCAGUUCCAGCUCUCACUCUACUCACCCAUGCCUCUAGCUGCACAAUGUUAUGGCACUAUGGAAUUCUCGGGUGCCAA,1.47
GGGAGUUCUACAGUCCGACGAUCAGCCAAACAAGAAUCAGUUGAUCCCCUUGCACUUUGGACACUUCAAUGGAGCCUGAGCUGCUUAGAAGCCUUGGUUCAGGAUUCCAGCUGGGUUCAUGACUGUGAACACAUGGAAUUCUCGGGUGCCAA,0.291
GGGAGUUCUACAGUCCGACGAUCAGGCUUGAGAAAAGUGGGGCUGGGGAGAAGCAGGCUUGUCAGACUCCACCCCUGUUGAUGAUCAUUCCUGGGAAGGGGUUUCUCGUUCUAUGCAAUCCUAAAGGACGAAAUGGAAUUCUCGGGUGCCAA,0.409
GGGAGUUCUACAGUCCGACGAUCCAGGAAUAUUAAGUUCUAUAACUAGUACUCAAGGUUUAACCUUAAAAUUAAGAUUUCCUUAACCUUAACCUUAAAAUUGAUAUUAUAUUAAACAUACAUAAUACAAUGUAUGGAAUUCUCGGGUGCCAA,0.562
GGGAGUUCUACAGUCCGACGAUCGAGCACUCCCUACAUGGUAGGUUGUACCAGAGACCUAUGACCCCUGCCUUGUGGUAAACAGCAGGUGUUGGAUCAGAACCAUCGAUUUCCUGGCUGGCACCUGGUGUUGAUGGAAUUCUCGGGUGCCAA,0.294
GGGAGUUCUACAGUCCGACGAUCACAGAAAGUUGGAUUCCUGGGAUGUUUGCACAUCAACUGCUCAACUGUGGAUUGUUUUUUACUUUUCCUUUUAAACCGGUUCGUAUAUAUUUUUCUUCGCUGUUACGAAUUGGAAUUCUCGGGUGCCAA,1.01
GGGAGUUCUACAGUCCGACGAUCUGUGACAUAUUUAUUCCUAGUUCCAUACCUUUGCACAUGCCCUACUCUCCACUAAUUAUACUUAAAAGUCCAAAAAUUUUUUCUUUAGUAACAGACUUAGGUACUGCUAAUGGAAUUCUCGGGUGCCAA,0.741
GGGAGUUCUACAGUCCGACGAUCUCACCUGUUCUUACCCACGUCCCUCCUCAAUAAAGAAGCCAGUCAGGCGUGGUUAUAUGUUGCUACGUCUCCAGUGACUUUCUUCUCUUAAGACACAGUAGUGCUGAAUUUGGAAUUCUCGGGUGCCAA,0.44

# Block 3
# Target: Fragile X messenger ribonucleoprotein 1, C-terminal low-complexity region (Fmr1, Mus musculus, UniProt P35922)
# Technique: RNA Bind-n-Seq
# Molecule type: RNA
# Sample: in vitro
# Concentration: 200 nM
# Notes: whole 134-nt RNA, ends assumed
# With: 150 mM LiCl
# Reference: input library
# Reading: higher = stronger binding
# Each molecule: 7-deaza-guanosine replaces G
Sequence,log2 enrichment
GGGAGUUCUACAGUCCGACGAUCAAGUCCUGUGCUACACAUCGUAUGUACCGAAUCGGGGUUUUGGUUUUGGUUUUGGGGAAAGUAUUAUGUUACGCCGUUCGGAUCUGCACUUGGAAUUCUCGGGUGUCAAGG,-1.55
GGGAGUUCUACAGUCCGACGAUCAAGUCCUGUGCUACACAUCGUAUGUACCGAAUCGGGAAAAAGGGUUUGGGUUUGGGAAAGUAUUAUGUUACGCCGUUCGGAUCUGCACUUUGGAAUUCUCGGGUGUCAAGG,-1.98
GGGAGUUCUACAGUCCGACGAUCACCAUGCAGGUGGGCAUCUUUGGGAAGUGGGGCAAGGGAGGGAUAGGGAGGGGGGUAACACUUUGGGAACAGGUGGUCCCAGGUCGUUUCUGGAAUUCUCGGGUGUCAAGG,1.4
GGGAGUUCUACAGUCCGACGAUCUCAAGUCCUGUGCUACACAUCGUAUGUACCGAAUCGGGUUUGGGUGGGUUUGGGAAAGUAUUAUGUUACGCCGUUCGGAUCUGCACUUCCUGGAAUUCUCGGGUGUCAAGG,-1.1
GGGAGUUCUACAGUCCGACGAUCACCAUGCAGGUGGGCAUCUUUGGGAAGUGGGGCAAGGGGGGGAUAGGGAGGGGGGUAACACUUUGGGAACAGGUGGUCCAAAGUCGUUUCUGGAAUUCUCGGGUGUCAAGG,1.23
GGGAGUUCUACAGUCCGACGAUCUGGGAGGUGGAUUUUGUUUAUUUUUUUAGCUCAUUUCCAGGGGUGGGAAUUUUUUUUUAAUAUGUGUCAUGAAUAAAGUUGUUUUUGAAUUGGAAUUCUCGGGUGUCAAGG,0.447
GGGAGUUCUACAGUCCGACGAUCUUUAUCAUGAGGAGCUCAACGCGCCCAUACGGAGAAACAAAGAAGAGCCCAAGGCCCGGCCCUUGAGAGUAGGUGACACGGAGAAGCCAGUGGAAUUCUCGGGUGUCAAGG,-1
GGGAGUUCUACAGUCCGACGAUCUCCUGUGCUACACAUCGUAUGUACCGAAUCGGGGAAAAAGGGGAAAAAGGGGAAAAAGGAAAGUAUUAUGUUACGCCGUUCGGAUCUGCAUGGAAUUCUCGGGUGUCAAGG,-0.182
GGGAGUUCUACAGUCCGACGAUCCACAGACAACACGCACCCACACAGACACAGAGGGAAGGGGUUGGGAUGGGGACAGGGUCCACAGCAGGGCGGGGUAGGACCCCAGCCCCUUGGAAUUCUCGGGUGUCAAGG,0.153
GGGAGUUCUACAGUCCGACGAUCCUCAAGUCCUGUGCUACACAUCGUAUGUACCGAAUCGGAAAGGUUUGGAAAGGAAAGUAUUAUGUUACGCCGUUCGGAUCUGCACUUCCAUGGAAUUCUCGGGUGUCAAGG,-0.0132
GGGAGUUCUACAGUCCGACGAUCCAAGUCCUGUGCUACACAUCGUAUGUACCGAAUCGUGUGUGUGUGUGUGUGUGUGAAAGUAUUAUGUUACGCCGUUCGGAUCUGCACUUCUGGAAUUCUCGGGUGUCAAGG,-0.353

# Block 4
# Target: Max-binding protein MNT, bHLH-zipper, MAX partner unstated (MNT, Homo sapiens, UniProt Q99583, residues 220-300)
# Technique: protein-binding microarray
# Molecule type: double-stranded DNA, one strand shown
# Sample: in vitro
# Concentration: not given
# Notes: k-mer, scored over probes, only values ≥0.25
# Reading: higher = stronger binding
# Target sequence (chain): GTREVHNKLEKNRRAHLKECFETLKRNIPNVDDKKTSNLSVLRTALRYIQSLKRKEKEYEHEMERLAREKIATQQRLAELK
Sequence,E-score
CGCATGGA,0.401
CGCACGCG,0.444
AAGTCACG,0.326
CGTGCAAA,0.285
CCCCACTA,0.27
ACGCGGAC,0.328
CGCCCACC,0.281
ACGTTTTG,0.255
CGTGGAAA,0.351
ACGCGTCC,0.308
GGCCCCAC,0.261
ATGTGATA,0.299
ACCCACGG,0.258
CATGTGGG,0.465
AATGCACG,0.36
CGCCACGA,0.25
GACATGCC,0.363
GCATGATA,0.282
CTCATGCC,0.305
ATAGCGTG,0.353
CATGACCC,0.32
CATGGGTA,0.269
TAGCACGA,0.277
AGCGCGTG,0.438
AACATGTG,0.48
